Published values gathered from unrelated publications.
Every numbered part comes from another study and shows a few of its results, in no order.
UniProt Q00526, sequence (whole entry, looked up): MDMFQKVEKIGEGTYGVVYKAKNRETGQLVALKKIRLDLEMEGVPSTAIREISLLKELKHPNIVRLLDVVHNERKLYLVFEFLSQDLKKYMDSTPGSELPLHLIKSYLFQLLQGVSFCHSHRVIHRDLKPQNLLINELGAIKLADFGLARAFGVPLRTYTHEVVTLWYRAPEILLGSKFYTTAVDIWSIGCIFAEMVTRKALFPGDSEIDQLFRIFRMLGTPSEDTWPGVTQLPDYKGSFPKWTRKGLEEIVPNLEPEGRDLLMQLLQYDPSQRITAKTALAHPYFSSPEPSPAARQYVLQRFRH
UniProt P10721, sequence (whole entry, unmodified, looked up): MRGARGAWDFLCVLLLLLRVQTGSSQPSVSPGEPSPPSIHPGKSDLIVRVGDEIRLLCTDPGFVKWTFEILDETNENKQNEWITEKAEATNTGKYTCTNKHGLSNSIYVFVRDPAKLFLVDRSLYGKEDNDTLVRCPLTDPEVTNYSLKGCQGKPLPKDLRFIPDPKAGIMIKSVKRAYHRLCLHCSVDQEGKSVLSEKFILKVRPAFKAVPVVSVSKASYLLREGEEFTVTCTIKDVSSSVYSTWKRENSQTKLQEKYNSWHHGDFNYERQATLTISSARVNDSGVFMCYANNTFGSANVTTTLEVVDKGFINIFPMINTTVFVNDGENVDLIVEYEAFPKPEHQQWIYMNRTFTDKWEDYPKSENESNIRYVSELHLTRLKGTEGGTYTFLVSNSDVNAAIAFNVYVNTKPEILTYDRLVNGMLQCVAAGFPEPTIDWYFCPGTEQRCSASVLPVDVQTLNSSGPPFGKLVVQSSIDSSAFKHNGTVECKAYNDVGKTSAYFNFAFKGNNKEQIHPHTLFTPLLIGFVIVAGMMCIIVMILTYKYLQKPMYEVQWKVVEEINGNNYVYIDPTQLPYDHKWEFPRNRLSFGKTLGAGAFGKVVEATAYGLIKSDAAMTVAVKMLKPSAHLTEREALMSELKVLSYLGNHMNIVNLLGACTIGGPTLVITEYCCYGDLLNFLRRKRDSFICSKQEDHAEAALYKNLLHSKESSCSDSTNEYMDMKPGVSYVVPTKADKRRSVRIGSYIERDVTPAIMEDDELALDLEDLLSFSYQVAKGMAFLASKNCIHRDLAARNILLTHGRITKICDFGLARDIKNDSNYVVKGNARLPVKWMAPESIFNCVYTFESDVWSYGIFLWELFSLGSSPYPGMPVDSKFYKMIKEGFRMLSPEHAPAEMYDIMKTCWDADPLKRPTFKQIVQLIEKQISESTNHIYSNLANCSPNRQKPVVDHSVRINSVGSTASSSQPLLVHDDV
UniProt O75914, sequence (whole entry, looked up): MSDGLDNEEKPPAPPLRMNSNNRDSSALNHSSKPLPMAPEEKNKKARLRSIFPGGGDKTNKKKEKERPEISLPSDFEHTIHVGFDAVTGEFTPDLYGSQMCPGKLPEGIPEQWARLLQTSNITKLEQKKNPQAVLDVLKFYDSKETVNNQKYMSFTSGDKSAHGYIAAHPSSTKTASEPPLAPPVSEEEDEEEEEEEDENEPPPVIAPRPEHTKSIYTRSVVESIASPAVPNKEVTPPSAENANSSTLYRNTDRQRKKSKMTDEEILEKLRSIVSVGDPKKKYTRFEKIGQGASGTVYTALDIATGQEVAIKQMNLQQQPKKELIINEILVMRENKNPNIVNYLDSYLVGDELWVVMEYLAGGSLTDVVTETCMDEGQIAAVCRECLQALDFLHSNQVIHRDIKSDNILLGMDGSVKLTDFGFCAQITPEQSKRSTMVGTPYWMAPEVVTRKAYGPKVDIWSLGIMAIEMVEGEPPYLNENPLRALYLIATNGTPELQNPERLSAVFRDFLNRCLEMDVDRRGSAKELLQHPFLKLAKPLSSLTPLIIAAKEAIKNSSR
UniProt Q9HBY8, sequence (whole entry, looked up): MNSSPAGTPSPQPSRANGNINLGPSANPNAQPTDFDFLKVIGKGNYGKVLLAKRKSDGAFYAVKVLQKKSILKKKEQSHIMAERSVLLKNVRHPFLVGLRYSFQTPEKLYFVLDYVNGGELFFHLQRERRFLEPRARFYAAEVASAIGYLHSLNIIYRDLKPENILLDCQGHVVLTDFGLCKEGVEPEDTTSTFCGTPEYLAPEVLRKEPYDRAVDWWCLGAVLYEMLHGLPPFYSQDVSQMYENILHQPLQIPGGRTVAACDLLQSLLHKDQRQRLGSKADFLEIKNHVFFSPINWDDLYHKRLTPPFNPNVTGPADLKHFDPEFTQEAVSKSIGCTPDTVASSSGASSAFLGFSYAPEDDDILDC
UniProt Q86Z02, sequence (whole entry, looked up): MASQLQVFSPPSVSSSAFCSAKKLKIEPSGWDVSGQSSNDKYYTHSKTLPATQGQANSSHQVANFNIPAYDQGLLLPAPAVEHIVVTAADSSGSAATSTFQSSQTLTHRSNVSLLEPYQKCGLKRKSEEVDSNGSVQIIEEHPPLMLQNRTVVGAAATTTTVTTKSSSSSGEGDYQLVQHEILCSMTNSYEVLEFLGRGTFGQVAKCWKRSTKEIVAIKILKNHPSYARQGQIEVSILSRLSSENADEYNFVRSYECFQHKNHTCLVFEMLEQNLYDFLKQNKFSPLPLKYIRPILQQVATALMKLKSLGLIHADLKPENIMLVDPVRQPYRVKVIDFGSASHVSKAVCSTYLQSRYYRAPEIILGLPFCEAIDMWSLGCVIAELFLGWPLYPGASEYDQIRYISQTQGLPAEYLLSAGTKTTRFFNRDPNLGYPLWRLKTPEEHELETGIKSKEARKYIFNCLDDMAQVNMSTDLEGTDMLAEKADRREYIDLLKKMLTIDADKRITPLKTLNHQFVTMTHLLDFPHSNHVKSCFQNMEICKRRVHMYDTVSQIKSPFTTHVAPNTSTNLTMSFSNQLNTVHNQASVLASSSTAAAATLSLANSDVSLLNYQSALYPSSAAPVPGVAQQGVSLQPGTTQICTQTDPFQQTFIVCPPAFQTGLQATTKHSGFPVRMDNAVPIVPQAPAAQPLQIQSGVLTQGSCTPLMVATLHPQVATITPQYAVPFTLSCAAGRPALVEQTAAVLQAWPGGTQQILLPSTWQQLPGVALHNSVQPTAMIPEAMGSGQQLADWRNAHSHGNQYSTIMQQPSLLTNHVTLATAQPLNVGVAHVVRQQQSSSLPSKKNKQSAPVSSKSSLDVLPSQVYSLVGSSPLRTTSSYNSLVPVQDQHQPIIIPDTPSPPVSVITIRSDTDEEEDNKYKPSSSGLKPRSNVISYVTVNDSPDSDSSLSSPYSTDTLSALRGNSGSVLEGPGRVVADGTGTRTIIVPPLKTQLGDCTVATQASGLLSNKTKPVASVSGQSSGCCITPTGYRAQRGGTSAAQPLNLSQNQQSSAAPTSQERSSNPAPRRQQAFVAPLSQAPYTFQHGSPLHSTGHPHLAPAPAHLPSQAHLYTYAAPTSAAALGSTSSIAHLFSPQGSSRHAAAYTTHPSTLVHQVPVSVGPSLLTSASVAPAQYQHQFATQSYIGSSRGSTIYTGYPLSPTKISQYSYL
UniProt Q9BZL6, sequence (whole entry, looked up): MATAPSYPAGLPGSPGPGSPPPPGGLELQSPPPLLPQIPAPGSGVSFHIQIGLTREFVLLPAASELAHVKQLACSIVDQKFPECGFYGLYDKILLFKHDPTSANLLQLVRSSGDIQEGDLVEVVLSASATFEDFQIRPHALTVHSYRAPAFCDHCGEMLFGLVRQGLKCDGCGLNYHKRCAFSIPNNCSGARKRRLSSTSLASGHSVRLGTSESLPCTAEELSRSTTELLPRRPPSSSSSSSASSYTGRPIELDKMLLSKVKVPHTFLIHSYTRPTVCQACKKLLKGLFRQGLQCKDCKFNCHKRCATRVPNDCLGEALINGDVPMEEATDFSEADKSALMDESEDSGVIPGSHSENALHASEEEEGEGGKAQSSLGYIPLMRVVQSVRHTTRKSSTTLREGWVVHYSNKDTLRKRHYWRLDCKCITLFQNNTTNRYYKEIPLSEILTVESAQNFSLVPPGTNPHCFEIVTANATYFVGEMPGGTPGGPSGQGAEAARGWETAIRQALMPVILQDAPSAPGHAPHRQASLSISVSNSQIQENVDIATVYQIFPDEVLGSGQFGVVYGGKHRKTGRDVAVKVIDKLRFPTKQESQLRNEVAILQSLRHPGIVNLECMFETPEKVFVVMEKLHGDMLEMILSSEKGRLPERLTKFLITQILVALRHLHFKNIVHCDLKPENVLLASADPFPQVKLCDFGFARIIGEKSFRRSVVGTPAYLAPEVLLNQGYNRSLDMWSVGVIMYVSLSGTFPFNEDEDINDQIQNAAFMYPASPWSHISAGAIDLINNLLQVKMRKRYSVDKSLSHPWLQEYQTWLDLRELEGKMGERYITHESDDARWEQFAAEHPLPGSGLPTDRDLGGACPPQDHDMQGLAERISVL
UniProt P53667, sequence (whole entry, looked up): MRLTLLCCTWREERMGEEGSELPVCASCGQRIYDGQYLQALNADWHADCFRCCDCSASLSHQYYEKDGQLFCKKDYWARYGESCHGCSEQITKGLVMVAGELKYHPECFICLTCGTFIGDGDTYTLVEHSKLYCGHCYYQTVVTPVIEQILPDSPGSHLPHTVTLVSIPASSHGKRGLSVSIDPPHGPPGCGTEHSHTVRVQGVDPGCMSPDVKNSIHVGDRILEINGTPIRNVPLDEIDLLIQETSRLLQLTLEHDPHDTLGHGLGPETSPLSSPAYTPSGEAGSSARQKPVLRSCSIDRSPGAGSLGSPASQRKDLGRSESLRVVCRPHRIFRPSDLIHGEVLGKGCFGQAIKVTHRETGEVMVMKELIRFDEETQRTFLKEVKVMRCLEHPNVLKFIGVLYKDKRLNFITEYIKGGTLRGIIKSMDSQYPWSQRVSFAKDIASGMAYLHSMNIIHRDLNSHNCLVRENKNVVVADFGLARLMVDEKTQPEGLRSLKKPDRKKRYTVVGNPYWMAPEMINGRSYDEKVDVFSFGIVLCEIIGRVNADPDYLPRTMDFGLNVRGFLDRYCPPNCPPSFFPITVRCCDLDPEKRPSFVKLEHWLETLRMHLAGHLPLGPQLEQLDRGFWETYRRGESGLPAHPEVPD

Study 1
SMILES: O=C1NC(=O)/C(=C/c2ccc3nccnc3c2)S1
Read-out: enzyme activity
Mode: inhibitor
Tested at: 0.5 µM
Baseline: control
target	remaining activity
LIM domain kinase 1 (LIMK1, Homo sapiens, UniProt P53667)	87.4%
PASK (Homo sapiens, UniProt Q96RG2)	87.7%
MATK (Homo sapiens, UniProt P42679)	90.5%
NEK11 (Homo sapiens, UniProt Q8NG66)	111%
HIPK1 (Homo sapiens, UniProt Q86Z02)	104%
Cyclin-dependent kinase 3, with cyclin E (CDK3, Homo sapiens, UniProt Q00526)	91.7%
Insulin receptor (INSR, Homo sapiens, UniProt P06213)	108%
ITK (Homo sapiens, UniProt Q08881)	91.2%
CDC42BPA (Homo sapiens, UniProt Q5VT25)	93.1%
AKT1 (Homo sapiens, UniProt P31749)	98.3%
STK25 (Homo sapiens, UniProt O00506)	99.3%
FYN (Homo sapiens, UniProt P06241)	95.3%
FGR (Homo sapiens, UniProt P09769)	96.8%
NLK (Homo sapiens, UniProt Q9UBE8)	92.4%
SRC (Homo sapiens, UniProt P12931)	102%
FLT4 (Homo sapiens, UniProt P35916)	108%
TAOK3 (Homo sapiens, UniProt Q9H2K8)	93.1%
MARK3 (Homo sapiens, UniProt P27448)	94.3%
ALK (Homo sapiens, UniProt Q9UM73)	93.3%
PKN1 (Homo sapiens, UniProt Q16512)	101%
PRKX (Homo sapiens, UniProt P51817)	89.2%
FER (Homo sapiens, UniProt P16591)	96.2%

Study 2
Structure (SMILES): C=CC(=O)N1CCC[C@@H](n2nc(-c3ccc(Oc4ccccc4)cc3)c3c(N)ncnc32)C1
Mode: inhibitor
Tested at: 1 µM
target	assay	inhibition [%]
LIM domain kinase 2 (LIMK2, Homo sapiens, UniProt P53671)	–	7
PAK3 (Homo sapiens, UniProt O75914)	enzyme activity	36
PRKD2 (Homo sapiens, UniProt Q9BZL6)	–	13
MUSK (Homo sapiens, UniProt O15146)	enzyme activity	7
CDK3 (Homo sapiens, UniProt Q00526)	enzyme activity	12
JAK3 (Homo sapiens, UniProt P52333)	–	97
MAP3K2 (Homo sapiens, UniProt Q9Y2U5)	enzyme activity	41
EGFR (Homo sapiens, UniProt P00533, del747-752/P753S)	–	51
HIPK3 (Homo sapiens, UniProt Q9H422)	enzyme activity	10
KIT (Homo sapiens, UniProt P10721, D816V)	–	8
PRKAA1 (Homo sapiens, UniProt Q13131)	–	4

Study 3
Cell line: mouse MPNST tumor cells
Technique: high-content nuclear imaging
Item: cell number
Tested at: 10 µM
Time: 12 h
Notes: mean of 2 replicates
Baseline: plate mean
Direction: higher = more cells
Structure (SMILES)	nuclei count [z-score]
C[C@]12CC[C@@H]3c4ccc(OS(=O)(=O)O)cc4CC[C@H]3[C@@H]1CCC2=O	0.304
COc1cc(C(C)=O)ccc1O	0.559
O=C(O)COc1ccc(/C=C2\SC(=O)NC2=O)cc1	2.12
OCCn1cc(-c2ccc3c(c2)CC/C3=N\O)c(-c2ccncc2)n1	3.77
CNCCC=C1c2ccccc2CCc2ccccc21	-6.94
COc1ncc(-c2ccc3c(Nc4cc(Oc5cc(F)cc(F)c5)cc(C(=O)O)c4)c(S(=O)(=O)NC4CC4)cnc3c2)c(OC)n1	1.3
Cc1cc(N)c2ccccc2[n+]1CCCCCCCCCC[n+]1c(C)cc(N)c2ccccc21	-1.98
O=C(c1cc(S(=O)(=O)Nc2ccccc2F)c(F)cc1Cl)N1CCN2CCC[C@@H]2C1	1.94
CC[N+](CC)(CC)CCOc1ccc(/C=C/c2ccccc2)cc1	-1.06
CN[C@@H](C)C(=O)N[C@H](C(=O)N1CCC[C@H]1C(=O)N[C@@H]1CCCc2ccccc21)C1CCCCC1	1.84

Study 4
SMILES: CS(=O)(=O)c1cc(C2(NC(=O)c3cncc4c3cnn4-c3ccc(F)cc3)CC2)ccn1
Read-out: cell-free assay
Technique: competition with immobilised ligand
Tested at: 1 µM
target	remaining binding [%]
LCK (Homo sapiens, UniProt P06239)	100
MAP4K4 (Homo sapiens, UniProt O95819)	88
Mast/stem cell growth factor receptor Kit, autoinhibited (KIT, Homo sapiens, UniProt P10721)	100
TNK2 (Homo sapiens, UniProt Q07912)	100
Tyrosine-protein kinase ABL1, non-phosphorylated (ABL1, Homo sapiens, UniProt P00519, F317L)	100
BLK (Homo sapiens, UniProt P51451)	100
SGK2 (Homo sapiens, UniProt Q9HBY8)	67
FLT3 (Homo sapiens, UniProt P36888)	100
PDGFRB (Homo sapiens, UniProt P09619)	93
CDK16 (Homo sapiens, UniProt Q00536)	94
MAP2K6 (Homo sapiens, UniProt P52564)	74
TSSK1B (Homo sapiens, UniProt Q9BXA7)	63

Repeated from above (study 4):
target	remaining binding [%]
TNK2 (Homo sapiens, UniProt Q07912)	100
Tyrosine-protein kinase ABL1, non-phosphorylated (ABL1, Homo sapiens, UniProt P00519, F317L)	100
BLK (Homo sapiens, UniProt P51451)	100
SGK2 (Homo sapiens, UniProt Q9HBY8)	67
FLT3 (Homo sapiens, UniProt P36888)	100
PDGFRB (Homo sapiens, UniProt P09619)	93
CDK16 (Homo sapiens, UniProt Q00536)	94
MAP2K6 (Homo sapiens, UniProt P52564)	74
